Measurements from different studies.
A part holds a random share of what one study measured. Changes are numbered by the printed parent chain.

Sample 1
Target: CCNE1, cyclin fold, Cln2 fusion (human)
Technique: yeast growth competition, sequencing
Medium: yeast
Notes: weak parent motif
Relative to: not given
Direction: higher = stronger binding
Starting sequence: MASTL docking peptide (human); PMIAKNLMCELDE
| Substitution | normalised enrichment score |
| --- | --- |
| PMIAKNLMCEQDE [L11Q] | 0.116 |
| PMIAKNLMCELTE [D12T] | 0.145 |
| PMIAENLMCELDE [K5E] | 0.251 |
| PMIAKNLRCELDE [M8R] | 0.0501 |
| PFIAKNLMCELDE [M2F] | 0.0898 |
| PMIAKNLMCELWE [D12W] | -0.00741 |
| PMIQKNLMCELDE [A4Q] | -0.218 |
| PMIAKNLMCELGE [D12G] | -0.0981 |
| PMIAKNLTCELDE [M8T] | -0.303 |
| PRIAKNLMCELDE [M2R] | 0.124 |
| PMICKNLMCELDE [A4C] | 0.105 |

Sample 2
Target: Ras GTPase-activating protein-binding protein 1, full length (G3BP1, Homo sapiens, UniProt Q13283)
Sequence of UniProt Q13283 (whole entry, looked up): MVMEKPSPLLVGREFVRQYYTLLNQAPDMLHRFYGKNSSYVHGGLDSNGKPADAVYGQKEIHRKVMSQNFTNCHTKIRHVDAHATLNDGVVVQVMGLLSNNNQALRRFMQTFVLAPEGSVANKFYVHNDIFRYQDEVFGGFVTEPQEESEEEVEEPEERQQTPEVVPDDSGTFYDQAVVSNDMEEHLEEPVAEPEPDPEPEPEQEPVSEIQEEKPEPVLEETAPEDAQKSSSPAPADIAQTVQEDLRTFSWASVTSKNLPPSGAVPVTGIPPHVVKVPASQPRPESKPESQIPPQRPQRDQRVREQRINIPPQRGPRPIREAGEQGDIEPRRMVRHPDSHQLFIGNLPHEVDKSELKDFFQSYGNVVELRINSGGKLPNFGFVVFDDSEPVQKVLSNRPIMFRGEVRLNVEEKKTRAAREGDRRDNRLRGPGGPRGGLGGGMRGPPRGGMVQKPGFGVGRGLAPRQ
Technique: RNA Bind-n-Seq
Form: RNA
Medium: in vitro
Tested at: 200 nM
Notes: whole 134-nt RNA, ends assumed
Added: 150 mM KCl
Relative to: input library
Direction: higher = stronger binding
Constant ends, left off below: GGGAGUUCUACAGUCCGACGAUC … UGGAAUUCUCGGGUGUCAAGG
| Sequence | log2 enrichment |
| --- | --- |
| GUCCUGUGCUACACAUCGUAUGUACCGAAUCGGGGAAAAAGGGGAAAAAGGGGUGGGGAAAGUAUUAUGUUACGCCGUUCGGAUCUGCAC | 0.206 |
| UUCCGCGACUACCGGCGUGUGCACAAGCCGCCCAAGGUGCAGGAGAAGUGCCAGCUGGAGAUCAACUUCAACACGCUGCAGACCAAGCUG | -1.25 |
| GCAGGAAGUAAAAACAAAUGGAAAUGCUACGGAUAGUGGCAGGGGUGGGGGUUGCUAAGGAAAGGGUGGGAUGGGAGUGGGUAAAGAGUU | 1.64 |
| AGUCCUGUGCUACACAUCGUAUGUACCGAAUCAAACCCCCAAAUUUUUAAACCCAAAAAAGUAUUAUGUUACGCCGUUCGGAUCUGCACU | -0.232 |
| CCUCAAGUCCUGUGCUACACAUCGUAUGUACCGAAUCGGAAGGGAAGGGAAGGAAAGUAUUAUGUUACGCCGUUCGGAUCUGCACUUCCA | -0.499 |
| ACCAUGCAGGUGGGCAUCUUUGGGAAGUGGGGCAAGGGGGGGAUAGGGAGGGGAGUAACACUUUGGGAACAGGUGGUCCCAGGUCGUUUC | 1.27 |
| UAACUUUAGAGGAGGAUCUGAUGGAUAUGGCAGUGGACGUGGAUUUGGGGAUGACUAUAAUGGGUAUGGAGGAGGACCUGGAGGUGGCAA | 0.558 |
| AGUCCUGUGCUACACAUCGUAUGUACCGAAUCAAACCCAAACCCCCAAACCCCCAAAAAAGUAUUAUGUUACGCCGUUCGGAUCUGCACU | -0.564 |
| UCCUGUGCUACACAUCGUAUGUACCGAAUCAAACCCCCAAAUUUUUAAAUUUUUUUAAAAAAGUAUUAUGUUACGCCGUUCGGAUCUGCA | 0.245 |

Sample 3
Target: Interferon regulatory factor 5, full length, phosphomimetic (IRF5, Homo sapiens, UniProt Q13568-2, residues 1-514, K96S/S451D/S453D/S456D/S462D)
Technique: protein-binding microarray
Form: double-stranded DNA, one strand shown
Medium: in vitro
Tested at: 250 nM
Notes: 60-bp whole probe
Added: salmon DNA 0.4 mg/ml
Relative to: random background probes
Direction: higher = stronger binding
Constant ends, left off below: GCCTAGCAC … GTCTTGATTCGCTTGACGCTGCTG
| Sequence | log fluorescence [z-score] |
| --- | --- |
| TACGGTCTCGGTATCGGGACGTGCTAG | 1.26 |
| GACGAACTGCTTATCCTGACGTGCTAG | -0.326 |
| GACGATATCGGGTTTCGTGACGTGCTA | 2.54 |
| GTAAGCAAAAATGATTGGTTGTGCTAG | 0.133 |
| AGATTCCTCTCACCTCGGCCTGTGCTA | -0.0398 |
| GACGGACTGCTACTGCTAACGTGCTAG | -0.744 |
| GACGGCATCGGTATCGGGACGTGCTAG | 0.792 |
| TTAGATATCGGGACGGGATTAGTGCTA | 1.21 |
| GACGATTGCAGTTTCGAGACGTGCTAG | 4.18 |
| TTCGGTTTCCTTATCCTTTAGTGCTAG | 2.17 |
| TCAAGCCTCTGTTTTGAACTGTGCTAG | 0.081 |
| TTCTGATCCATTTTGGTTTTGTGCTAG | 0.774 |
| TCATTACCGCATATCGGACTGTGCTAG | 0.563 |

Mixed results
| Molecule | target | assay | test system | setting | scale | endpoint | value |
| --- | --- | --- | --- | --- | --- | --- | --- |
| PhoQ, residues 284 288 289 292 302 303 SLGVVW | PhoP, residues 12 14 15 18 19 IQFRS (Escherichia coli, UniProt P23836) | Sort-seq, item: YFP reporter | E. coli | PhoQ-PhoP variant library, added: 10 µM Mg2+ | relative to: high Mg2+ state, higher = stronger signaling | fold induction | 65.6 |
